Experimental data of several laboratories.
Every numbered part comes from another study and shows a few of its results, in no order.

Series 1 — technique: RNA Bind-n-Seq; form: RNA; matrix: in vitro; tested at: 1 µM; notes: whole 134-nt RNA, ends assumed; with: 150 mM KCl; relative to: input library; reading: higher = stronger binding
Target: Ras GTPase-activating protein-binding protein 1, RRM domain (G3BP1, Homo sapiens, UniProt Q13283)
UniProt Q13283, sequence (whole entry, looked up): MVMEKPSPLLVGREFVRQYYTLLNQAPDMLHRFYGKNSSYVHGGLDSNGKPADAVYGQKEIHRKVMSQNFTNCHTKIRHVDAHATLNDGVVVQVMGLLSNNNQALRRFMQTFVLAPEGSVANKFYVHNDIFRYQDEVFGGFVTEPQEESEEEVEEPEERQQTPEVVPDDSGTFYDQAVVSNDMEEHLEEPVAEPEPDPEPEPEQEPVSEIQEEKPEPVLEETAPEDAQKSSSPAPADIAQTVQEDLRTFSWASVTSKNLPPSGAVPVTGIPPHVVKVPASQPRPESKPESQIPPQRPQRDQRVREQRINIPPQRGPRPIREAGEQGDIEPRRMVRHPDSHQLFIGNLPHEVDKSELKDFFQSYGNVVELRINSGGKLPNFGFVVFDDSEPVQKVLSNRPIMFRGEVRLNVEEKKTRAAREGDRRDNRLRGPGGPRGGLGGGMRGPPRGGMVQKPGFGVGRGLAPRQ
Strand | log2 enrichment
GGGAGUUCUACAGUCCGACGAUCUCCUCAAGUCCUGUGCUACACAUCGUAUGUACCGAAUCGGAGGAGGGAGGGGAAAGUAUUAUGUUACGCCGUUCGGAUCUGCACUUCCAGUGGAAUUCUCGGGUGUCAAGG | -0.153
GGGAGUUCUACAGUCCGACGAUCUCCUGUGCUACACAUCGUAUGUACCGAAUCGGGGUUUUUGGGGUGGGGUUUUUUUGGGGAAAGUAUUAUGUUACGCCGUUCGGAUCUGCAUGGAAUUCUCGGGUGUCAAGG | 0.72
GGGAGUUCUACAGUCCGACGAUCACCAUGCAGGUGGGCAUCUUUGGGAAGUGGGGCAAGGGGGGGAUAGGGAGGGGGGUAACACUUUGGGAACAGGUGGUCCCAGUUCGUUUCUGGAAUUCUCGGGUGUCAAGG | 0.63
GGGAGUUCUACAGUCCGACGAUCUAACUGUAGAGGAGGAUCUGAUGGAUAUGGCAGUGGACGUGGAUUUGGGGAUGGCUAUAAUGGGUAUGGAGGAGGACCUGGAGGUGGCAAUGGAAUUCUCGGGUGUCAAGG | -0.429

Series 2 — technique: protein-binding microarray; form: double-stranded DNA, one strand shown; matrix: in vitro; tested at: 2540 nM top; notes: 60-bp whole probe; with: salmon DNA 0.4 mg/ml; relative to: random background probes; reading: higher = stronger binding
Target: Interferon regulatory factor 3, full length, phosphomimetic (IRF3, Homo sapiens, UniProt Q14653, residues 1-427, S386D/S396D/S398D/S402D/T404D/S405D)
Residues (chain): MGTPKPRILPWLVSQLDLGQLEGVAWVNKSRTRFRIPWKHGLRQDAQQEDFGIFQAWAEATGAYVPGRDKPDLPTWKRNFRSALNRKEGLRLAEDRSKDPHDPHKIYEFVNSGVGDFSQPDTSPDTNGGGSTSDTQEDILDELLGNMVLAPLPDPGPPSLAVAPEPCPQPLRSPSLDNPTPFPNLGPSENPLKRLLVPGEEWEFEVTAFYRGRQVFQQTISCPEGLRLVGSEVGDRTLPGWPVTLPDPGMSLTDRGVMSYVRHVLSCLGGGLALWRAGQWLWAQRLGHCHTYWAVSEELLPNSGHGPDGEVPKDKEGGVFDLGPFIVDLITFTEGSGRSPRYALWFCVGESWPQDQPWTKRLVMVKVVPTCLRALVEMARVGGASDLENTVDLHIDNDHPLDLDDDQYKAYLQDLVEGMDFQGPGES
Strand | fitted relative affinity
GCCTAGCACGACGGATTCGGTCTCGGGACGTGCTAGGTCTTGATTCGCTTGACGCTGCTG | 2.94 z-score
GCCTAGCACCCTACCGCCCTTACCGCCGCGTGCTAGGTCTTGATTCGCTTGACGCTGCTG | 0.666 z-score
GCCTAGCACTTAGATTTCGGGTATCAATTAGTGCTAGTCTTGATTCGCTTGACGCTGCTG | 1.57 z-score
GCCTAGCACTTAGGTCTCCTTATACTTTAGTGCTAGGTCTTGATTCGCTTGACGCTGCTG | 2.21 z-score

Series 3 — technique: protein binding microarray; form: double-stranded DNA, one strand shown; matrix: in vitro; tested at: not given; relative to: not given; reading: higher = stronger binding
Target: Histone acetyltransferase KAT6A, winged helix 1, GST fusion (KAT6A, Homo sapiens, UniProt Q92794, residues 1-85)
Notes: 8-mer, flanks averaged, mean of 2 arrays, mostly near background
Residues (chain): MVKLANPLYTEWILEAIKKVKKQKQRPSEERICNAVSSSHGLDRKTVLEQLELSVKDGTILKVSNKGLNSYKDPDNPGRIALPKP
Strand | E-score
ACTGAATC | -0.0936
GTTTTCGA | -0.058
ATGAGGAA | -0.305
CCACCTAG | -0.0986
ACCAGTAT | -0.12
TAACGCTA | 0.00951

Further values, each from its own experiment
Substance | target | assay | test system | setting | scale | endpoint | value
PhoQ, residues 284 288 289 292 302 303 SSTLSG | PhoP, residues 12 14 15 18 19 SGWQI (Escherichia coli, UniProt P23836) | Sort-seq, measured: YFP reporter | E. coli | PhoQ-PhoP variant library, with: 10 µM Mg2+ | relative to: high Mg2+ state, higher = stronger signaling | fold induction | 7.36

Excerpt of the above (series 3):
Strand | E-score
CCACCTAG | -0.0986
